Published values of several laboratories.
Protocols differ between the studies behind these lines. ± gives the spread as reported.

The inhibition of `CC(C)C[C@H](NC(=O)[C@H](CCc1ccccc1)NC(=O)CN1CCOCC1)C(=O)N[C@@H](Cc1ccccc1)C(=O)N[C@@H](CC(C)C)C(=O)[C@@]1(C)CO1` is reported as no less than 90% (proteasome; enzyme activity; human, whole blood and PBMC; dose not given, 1 h after dose, cycle days 1, 8, 1, cycle 2).
The Kd of `Cc1ccc(C(=O)Nc2ccc(S(=O)(=O)O)c3cc(S(=O)(=O)O)cc(S(=O)(=O)O)c23)cc1NC(=O)c1cccc(NC(=O)Nc2cccc(C(=O)Nc3cc(C(=O)Nc4ccc(S(=O)(=O)O)c5cc(S(=O)(=O)O)cc(S(=O)(=O)O)c45)ccc3C)c2)c1` is reported as 250 nM (calf thymus histones; binding, fluorescence titration; pH 7.4, 25 °C, unfractionated histone mixture).
`QDAKLIS` — result for “NGS read count”: 146 (human syntenin PDZ1-2 tandem; binding, proteomic peptide phage display; peptide; phage pools rounds 4 and 5; higher = stronger enrichment).
`CCOC(=O)N1c2ccc(C(F)(F)F)cc2[C@@H](N(Cc2cc(C(F)(F)F)cc(C(F)(F)F)c2)C(=O)OC)C[C@H]1CC`: “pre-beta-HDL formation decrease” greater than 46% (CETP, human; human plasma; 0.1 to 10 µM, 21 h).
`CC1(C)CC(=O)C2=C(C1)Oc1ncnc(Nc3ccc(F)cc3)c1C2c1ccccc1F` (centres unmarked) has a binding constant of 450000 M⁻¹ (calf thymus DNA; UV-visible absorption titration; 20 µM, about 2% DMSO).
For `CC(=O)c1ccc(O)cn1`, “concentration doubling activity” read 48.5 µM (quinone reductase; inducer; Hepa-1c1c7; 48 h).
`O=C1Nc2ccccc2/C1=C1/Nc2ccccc2C1=O` has an IC50 of 15000 nM (class IIb HDAC; enzyme activity, inhibitor).
`C/C=C(/C)C(=O)O[C@H]1C(C)=C2[C@H]([C@@H]1OC(=O)CCCCCCC)[C@@](C)(OC(C)=O)C[C@H](OC(=O)CCC)[C@@]1(O)[C@H]2OC(=O)[C@@]1(C)O` gave a phosphorylation level of 171 ± 14% (Yes kinase, rat; item: Yes pY416; 1 µM, 5 min; reference: untreated control).
`O=C1OC(=O)c2ccccc21`: “maximal peptide depletion” -20.6% (lysine-containing peptide; mass spectrometry; 24 h, pH 10.2, room temperature).
For `AALNGPV`, “NGS read count” read 765 (human syntenin PDZ1-2 tandem; binding, proteomic peptide phage display; peptide; phage pools rounds 4 and 5; higher = stronger enrichment).
With `CC[C@H](C)[C@H](NC(=O)[C@@H]1CCCN1C(=O)[C@H](CC(=O)O)NC(=O)CNC(=O)[C@@H]1CCCN1C(=O)[C@H](CCC(=O)O)NC(=O)[C@H](C)NC(=O)[C@H](CCSC)NC(=O)[C@H](CC(C)C)NC(=O)[C@H](CO)NC(=O)[C@H](CCCCN)NC(=O)[C@H](CCCCN)NC(=O)[C@H](C)NC(=O)[C@@H](N)CCSC)C(=O)N1CCC[C@H]1C(=O)N[C@@H](CCCNC(=N)N)C(=O)N1CCC[C@H]1C(=O)N[C@@H](CCCNC(=N)N)C(=O)N[C@@H](CCCCN)C(=O)N[C@@H](CCCCN)C(=O)N[C@@H](CCCNC(=N)N)C(=O)N[C@@H](Cc1ccc(O)cc1)C(=O)N[C@@H](CCCNC(=N)N)C(=O)N1CCC[C@H]1C(=O)NCC(=O)N[C@H](C(=O)N[C@H](C(=O)N[C@@H](C)C(=O)N[C@@H](CC(C)C)C(=O)N[C@@H](CCCNC(=N)N)C(=O)N[C@@H](CCCCNC(=O)CCCC[C@@H]1SC[C@@H]2NC(=O)N[C@@H]21)C(=O)O)[C@@H](C)O)[C@@H](C)O` the relative binding was 1 (Sim3-FLAG; biotinylated peptide pull-down; Schizosaccharomyces pombe, cell extract; concentration not given; reference: wild-type cell extract).
`SVGKDVF` — result for “NGS read count”: 101 (human syntenin PDZ1-2 tandem; binding, proteomic peptide phage display; peptide; phage pools rounds 4 and 5; higher = stronger enrichment).
With `O=P(O)(O)OC[C@H]1OC(O)[C@H](O)[C@@H](O)[C@@H]1O` (some centres unmarked) the activation constant was 2.1 ± 0.5 mM (Medicago sativa sucrose-phosphate synthase; enzyme activity, allosteric activator; leaf extract; pH 7.2, with: 10 mM fructose 6-phosphate, 12 mM UDP-glucose).
`CC(C)(O)c1cn(-c2ccc(-c3cc(F)c(CO)c(S(C)(=O)=O)c3)cc2F)c(C(C)(C)c2c(Cl)cccc2Cl)n1` gave an EC50 of greater than 10000 nM (nuclear hormone receptors except PXR; agonist; cells).
`CCCCOc1cc(CC2CNC(=O)N2)ccc1OC` (centres unmarked) gave a Ki of 150 ± 20 nM (PDE4; inhibitor; HEK293 cells).
For `ASGDLCV`, “NGS read count” read 114 (human syntenin PDZ1-2 tandem; binding, proteomic peptide phage display; peptide; phage pools rounds 4 and 5; higher = stronger enrichment).
`COc1ccc(-c2cc(C(=O)Nc3cc(Cl)ccc3C)no2)cc1O` gave an EC50 of 0.00756 ± 0.00122 nM (mitochondrial permeability transition pore, mouse; mitochondrial swelling inhibition; isolated mouse liver mitochondria; with: Ca2+).
Under “STING pathway phosphorylation”, `CCc1ccc(NC(=O)Nc2c[nH]c3ccccc23)cc1` is recorded as “no effect” (human STING N154S; immunoblot, item: pSTING, TBK1, IRF3; SAVI patient fibroblasts; 1 and 2 µM, with: cGAMP 3 h).
For `CC(=O)OCCOC(C)=O`, “maximal peptide depletion” read -30.2% (lysine-containing peptide; mass spectrometry; 24 h, pH 10.2, room temperature).
`SQFPPGF` — result for “NGS read count”: 125 (human syntenin PDZ1-2 tandem; binding, proteomic peptide phage display; peptide; phage pools rounds 4 and 5; higher = stronger enrichment).
The Kb of `N[C@@H](C(=O)O)[C@H](O)[C@@]1(C(=O)O)CC[C@H](C[C@H](NC(=O)c2cc(Cl)c(O)c(Cl)c2)C(=O)O)N1` is reported as 11.6 nM (rat cortex NMDA receptor; ion current, antagonist, two-electrode voltage clamp; Xenopus oocytes; pH 7.4, with: NMDA + glycine 100 µM).
`Nc1nc2sc(CCc3ccc(C(=O)N[C@@H](CCC(=O)O)C(=O)O)cc3)cc2c(=O)[nH]1` — result for “relative binding affinity”: 0.25 to 0.45 (human folate receptor alpha; RT16; concentration not given, with: [3H]folic acid; reference: folic acid).
The EC50 of `Nc1nc2c(ncn2[C@@H]2O[C@@H]3COP(=O)(O)O[C@H]3[C@H]2O)c(=O)[nH]1` is reported as 39400 nM (rod cGMP-gated channel; ion current, agonist, inside-out patch clamp; -40 mV, with: calmodulin 200 nM).
Under “NGS read count”, `GSGTDDE` is recorded as 113 (human syntenin PDZ1-2 tandem; binding, proteomic peptide phage display; peptide; phage pools rounds 4 and 5; higher = stronger enrichment).
`COC(=O)C(C)n1c(C=O)ccc1CO` (centres unmarked) — result for “concentration doubling activity”: 43.1 µM (quinone reductase; inducer; Hepa-1c1c7; 48 h).
`C=CC(C)(CO)c1cc2c(=O)c(-c3ccc(O)cc3O)coc2cc1O` (centres unmarked): “concentration doubling activity” 13 µM (quinone reductase; inducer; Hepa1c1c7).
For `CNC(=O)c1cc(Oc2ccc(NC(=O)Nc3cc(C(C)(C)C)nn3-c3ccc4ncccc4c3)c(F)c2)ccn1.Cc1ccc(S(=O)(=O)O)cc1`, the inhibition was roughly 65% (human STAT5; item: phospho-STAT5; human, peripheral blood leukaemia cells; 300 mg, day 1).
`COc1cc(NC(=O)c2cc(-c3cccc(O)c3)on2)cc(OC)c1OC` gave an EC50 of less than 390 nM (mitochondrial permeability transition pore, mouse; mitochondrial swelling inhibition; isolated mouse liver mitochondria; with: Ca2+).
The EC50 of `O=C1c2c(O)cc(O)cc2O[C@H](c2cc(O)c(O)c(O)c2)[C@H]1O` is reported as roughly 200 nM (GABAA receptor, rat; tonic current enhancement, positive allosteric modulator, whole-cell patch clamp; hippocampal neurons, cultured; DIV14, no ethanol).
Under current inactivation, `CN1CCN(CCCN2c3ccccc3Sc3ccc(C(F)(F)F)cc32)CC1` is recorded as “decreased” (anoctamin-2 rat; Ca2+-activated Cl- current; HEK293 transfected; 20 µM, -70 mV, with: free Ca2+ 7.5 µM).
The IC50 of `O=c1c(O)c(-c2ccc(O)cc2)oc2cc(O)cc(O)c12` is reported as 48000 nM (class IIa HDAC; enzyme activity; bovine heart lysate).
Under binding, `LEQKAASAHNSYIVLCIENSFMTSFSK` is recorded as “inhibited” (VEGFR-3-Fc, recombinant, mouse; pull-down, western blot; peptide; concentration not given, 2 h, pH 7.4, 4 °C).
The concentration of `N-formylmethionyl-leucyl-phenylalanine` is reported as 20 nM (alpha1-antichymotrypsin, human; protein synthesis; HepG2; 6 h, 37 °C, concentration-dependent increase).
`bombesin` has a phosphorylation level of 213 ± 17% (Yes kinase, rat; Western blot, item: Yes pY416; pancreatic acini; 1 nM, 1 min; reference: untreated control).
The IC50 of `O=C(O)/C=C/c1ccc(O)c(O)c1` is reported as 120000 nM (class IIb HDAC; enzyme activity; bovine heart lysate).
`SRREWYV`: “NGS read count” 300 (human syntenin PDZ1-2 tandem; binding, proteomic peptide phage display; peptide; phage pools rounds 4 and 5; higher = stronger enrichment).
`COc1cc(/C=C/C(=O)O)cc(OC)c1O` has an inhibition of 81% (BCRP (ABCG2), rat; protein expression, western blot; Wistar rats, liver; 40 mg/kg; reference: untreated rats).
For `RGAVVTGR-NH2 (C-amide)`, the β-structure formation was 74 ± 23% (α-synuclein; amyloid formation, inhibitor, circular dichroism; peptide; 2 molar equivalents, pH 6.6, 37 °C, with: HFIP 2 vol-%; reference: uninhibited control).
The IC50 of `O=c1cc(-c2ccccc2)oc2cc(O)c(O)c(O)c12` is reported as 100000 nM (class IIa HDAC; enzyme activity; bovine heart lysate).
The EC50 of `Cc1ccc(Cl)cc1NC(=O)c1cc(-c2ccc(F)c(O)c2)on1` is reported as 0.134 ± 0.016 nM (mitochondrial permeability transition pore, mouse; mitochondrial swelling inhibition; isolated mouse liver mitochondria; with: Ca2+).
`RWFYFN / DRGSGK / WEKRWD (cyclic)` gave an amyloid formation of 89 ± 13% (α-synuclein; inhibitor, ThT fluorescence; peptide; 2 molar equivalents, pH 6.6, 37 °C, with: HFIP 2 vol-%; reference: uninhibited control).

A few entries again:
The Kd of `Cc1ccc(C(=O)Nc2ccc(S(=O)(=O)O)c3cc(S(=O)(=O)O)cc(S(=O)(=O)O)c23)cc1NC(=O)c1cccc(NC(=O)Nc2cccc(C(=O)Nc3cc(C(=O)Nc4ccc(S(=O)(=O)O)c5cc(S(=O)(=O)O)cc(S(=O)(=O)O)c45)ccc3C)c2)c1` is reported as 250 nM (calf thymus histones; binding, fluorescence titration; pH 7.4, 25 °C, unfractionated histone mixture).
`QDAKLIS` — result for “NGS read count”: 146 (human syntenin PDZ1-2 tandem; binding, proteomic peptide phage display; peptide; phage pools rounds 4 and 5; higher = stronger enrichment).
`CCOC(=O)N1c2ccc(C(F)(F)F)cc2[C@@H](N(Cc2cc(C(F)(F)F)cc(C(F)(F)F)c2)C(=O)OC)C[C@H]1CC`: “pre-beta-HDL formation decrease” greater than 46% (CETP, human; human plasma; 0.1 to 10 µM, 21 h).
